Measured values from different studies.
Values joined by “and” are separate records of one study, mostly repeats; a detail may differ. Numbers after ± are the reported error.

| Compound | tested on | test | setting | how to read | endpoint | result |
| --- | --- | --- | --- | --- | --- | --- |
| CC(C)(C)c1cc(-c2ccc3cc4ccccc4nc3n2)nc(-c2ccc3cc4ccccc4nc3n2)c1.Cc1ccncc1.[Cl-].[Cl-].[Ru+2].c1ccc2cc3nc4c5cccnc5c5ncccc5c4nc3cc2c1 | A-375 | photocytotoxicity, resazurin | visible light 400-700 nm, 20 mW, 100 J/cm2 | – | EC50 | 6530 nM |
| C[n+]1ccc(/C=N/NC(=O)c2cncc(C(=O)N/N=C/c3cc[n+](C)c4ccccc34)n2)c2ccccc21 | MYC promoter parallel G-quadruplex DNA | UV melting | 3 µM, 1 mM potassium, with: DNA 3 µM | – | delta Tm | 13.2 °C |
| Cn1ncc(-c2ccc3c(=O)[nH]nc(CN)c3c2)c1-c1c(F)c(Cl)cc(OC2CC2)c1C#N | OCI-Ly3 | cell viability, inhibitor, CellTiter-Glo | 120 h, baseline-subtracted | – | IC50 | 700 nM |
| O=C(CC(=O)Nc1ccc2[nH]nc(/C=C/c3ccccn3)c2c1)Nc1cccc(F)c1 | Ba/F3 TEL-VEGFR1 | cell growth, CCK-8 | – | – | GI50 | 300 nM |
| Cc1[nH][n+]([Pd-2]([Cl])([Cl])[n+]2[nH]c(C)c(CSCc3ccccc3)c2C)c(C)c1CSCc1ccccc1 | U-937 | cytotoxicity | – | reference: IC50 HEK293 over IC50 U-937 | selectivity index | 1.5 |
| CN1CCCNC(=O)c2cccc(c2)C(=O)NCCCN(C)CCCNc2cccc3c2C(=O)c2cccc(c2C3=O)NCCC1 | SAS | RNA-Seq, item: MAP3K7 mRNA | 1 µM, 6 h | reference: untreated cells | log2 fold change | -1.27 |
| C=CC(=O)N1[C@H](c2ccc3c(c2)OCO3)c2[nH]c3ccccc3c2C[C@@H]1C(=O)NC | rat DRG neurons | – | 0.1235 µM, 48 h, with: vincristine 40 nM | – | mean neuron degeneration | 59.7% |
| CN(C)Cc1nc(Nc2ccc(-c3cnc4cc(F)ccn34)c3c2C(=O)NC3)ccc1C1CCOC1 (stereo not shown) | mouse BMDC | flow cytometry | 10 µM | – | CD86-positive cells | 80% |
| C=C1CC2(C(=O)OC)C=C(C(=O)OC(C)(C)C)C(=O)C1C2 (stereo not shown) | AP-1 reporter HEK293 | AP-1 reporter gene, luciferase reporter | 1 µM, 6 h, with: PMA 6 ng/mL | reference: PMA alone | luminescence relative to PMA | 0.889 |
| COC(=O)c1cc(NC2=NC(=O)C(=Cc3ccc(N(C)C)cc3)S2)ccc1OC(C)=O | MCF7 | item: ZSWIM7 mRNA | 0.81 µM (IC50), 24 h | reference: DMSO | fold change | 0.314 |
| COc1ccc(NC(=O)c2ccc3[nH]c(-c4ccc(N(C)C)cc4)nc3c2)cn1 | HCT116 | IncuCyte | concentration not given, 24 h | – | dead cell to confluence ratio | 466 and 131 and 236 |
| CC(C)c1ccc(N(C)c2ccc3c(c2)OCC[C@H]3CNc2cnccc2C(=O)O)cc1 | NCI-H508 | cell growth or viability, ATP luminescence | 7 days | – | IC50 | 10.2 nM |
| COc1ccc(C([O-])=CC(=O)c2ccc(C(C)(C)C)cc2)cc1.[Ru+2].c1ccc(-c2cccc(-c3ccccn3)n2)nc1.c1cnccn1 | HL-60 | – | – | reference: dark IC50 over light IC50 | phototoxicity index | 5 |
| CC(C)(C)c1cc(-c2ccc3cccnc3n2)nc(-c2ccc3cccnc3n2)c1.[Cl-].[Cl-].[Ru+2].c1ccc2cc3nc4c5cccnc5c5ncccc5c4nc3cc2c1 | A-375 | resazurin | with: light 633 nm, 100 J/cm2 | reference: dark EC50 over light EC50 | phototoxicity index | 3 |
| Cc1ncsc1-c1ccc(C(C)NC(=O)C2CC(O)CN2C(=O)C(NC(=O)CCCCCCCCCCN2CCCC(Nc3ncc(Cl)c(Nc4ccccc4S(=O)(=O)C(C)C)n3)C2)C(C)(C)C)cc1 (stereo not shown) | 22Rv1 | RNA-seq, item: NUP37 mRNA | concentration not given | reference: DMSO | log2 fold change | -1.26 |
| Cc1cc(Cl)cc(-c2ccnc3cc(CN4C(=O)C5C(C4=O)C5(C)C)sc23)c1C[C@@H]1CNCCO1 (stereo partly shown) | CHP-212 parental (wild-type USP7) | annexin V-PI flow cytometry | 0.1 µM, 48 h | – | viable cells (annexin V-/PI-) | 77.3% and 83.9% and 75.4% |

| Compound | tested on | test | setting | how to read | endpoint | result |
| --- | --- | --- | --- | --- | --- | --- |
| COc1ccccc1-c1ccncc1C(=O)Nc1nnc(OCc2ccc(Cl)cc2)s1 | PEO1 BRCA2-mutant | – | 0.5 µM, with: olaparib 1 µM | – | colony survival | 0% |
| C[n+]1ccc(/C=N/NC(=O)N/N=C/c2cc[n+](C)cc2)cc1 | MYC parallel G4 DNA | FRET melting | 1 µM, DNA 0.2 µM, with: duplex DNA competitor 10 µM | – | ΔTm | 3.2 ± 0.3 °C |
| CCN(C(=O)c1cc(F)ccc1Oc1nncnc1N1CCC2(C1)CN([C@H](CCCN(C)CCOC)C(C)C)C2)C(C)C | COLO 205 | cell growth or viability | 72 h | – | GI50 | > 10000 nM |
| CCOc1cncc(-c2ccc(NC(=O)C3(c4ccnc(NS(=O)(=O)C5CC5)n4)CCOCC3)nc2)n1 | MOLM-13 | cell proliferation, CellTiter-Glo | 72 h | – | IC50 | 76 nM |
| C=CC(=O)N1CCC[C@@H](n2nc(-c3ccc(Oc4ccccc4)cc3)c3c(N)ncnc32)C1 | OCI-Ly3 | cell growth or viability, WST-1 | 72 h | – | GI50 | > 10000 nM |
| CCCNC(=O)[C@H]1O[C@@H]1C(=O)N[C@H](C(=O)N1CCC[C@H]1C(=O)OCC1=C2C(C)=CC(C)=[N+]2[B-](C)(C)n2c(C)cc(C)c21)[C@@H](C)CC | MCF-10A | cell viability, MTT | concentration not given, 4 h, irradiated 15 min up to 470 nm | – | EC50 | 10300 ± 2000 nM |
| Cn1ncc2cc(-c3cncc(Cl)c3N3CCC4(CCNC4=O)CC3)ccc21 | LS174T | gene expression, microarray, item: NOD2 mRNA | concentration not given, 4 h | reference: untreated cells | log2 fold change | 1.05 |
| CNS(=O)(=O)Nc1nccc(Cc2c(C)c3ccc(Oc4ncccc4F)cc3oc2=O)c1F | HEC-1B | cell viability | 7 days | – | IC50 | 500 nM |
| N#Cc1cccc(/C=C/C(=O)c2ccc(O)cc2)c1 | U-87 MG | item: ANKRD1 | concentration not given | reference: untreated | fold change | 1160 |
| CCN(CC)CC(=O)Nc1cccc(-n2cc(-c3ccc4ccc(-c5cn(-c6cccc(NC(=O)CN(CC)CC)c6)nn5)cc4c3)nn2)c1 | RCC4 | PCR angiogenesis array, item: CDH5 | 5 x IC50, 2 h, normoxia | reference: untreated | fold regulation | -1.11 |
| COc1cccc(OC)c1-c1cc(C(=O)NC2(C(=O)O)C3CC4CC(C3)CC2C4)nn1-c1ccc(C(=O)N(C)CCOCCN(C)C(=O)[C@H](CCCCNC(=O)[C@H](CC(C)C)NC(=O)C2OC2C(=O)O)NC(=O)CN2CCN(CC(=O)[O-])CCN(CC(=O)[O-])CCN(CC(=O)[O-])CC2)cc1C(C)C.[177Lu+3] (mixture of isomers) | HT-29 | – | 240 min, 4 h | reference: added activity | internalized fraction | 3.74 ± 0.43% |
| CC(=O)OC[C@H]1O[C@@H](n2cc(CSc3nc4ccccc4n3Cc3cn([C@@H]4O[C@H](COC(C)=O)[C@@H](OC(C)=O)C(OC(C)=O)[C@H]4OC(C)=O)nn3)nn2)[C@H](OC(C)=O)C(OC(C)=O)[C@@H]1OC(C)=O (stereo in doubt) | Caco-2 | MTT | 500 ppm | – | cytotoxicity | 91.4% |
| CC#CC#C/C=C1/O[C@@]2(CCCCO2)[C@@H](O)[C@@H]1OC(C)=O | RAW264.7 | Western blot | concentration not given, with: LPS | – | p38 phosphorylation | decreased |
| Cc1ccncc1.[Cl-].[Cl-].[Ru+2].c1cc(-c2ccc3cccnc3n2)nc(-c2ccc3cccnc3n2)c1.c1ccc2cc3nc4c5cccnc5c5ncccc5c4nc3cc2c1 | A-375 | photocytotoxicity, resazurin | visible light 400-700 nm, 20 mW, 100 J/cm2 | – | EC50 | 1040 nM |
| CC(C)(COP(=O)(O)OP(=O)(O)OC[C@H]1O[C@@H](n2cnc3c(N)ncnc32)[C@H](O)[C@@H]1OP(=O)(O)O)[C@@H](O)C(=O)NCCC(=O)NCCSCCC(=O)N[C@@H](CO)C(=O)NCC(=O)N[C@@H](CCCNC(=N)N)C(=O)NCC(=O)N[C@@H](CCCCN)C(=O)NCCCC[C@H](NC(=O)CC[C@@H]1NC(=O)[C@@H](CCCNC(=N)N)NC(=O)[C@H](CCCNC(=N)N)NC(=O)[C@@H](CCCNC(=N)N)NC(=O)[C@H](CCCNC(=N)N)NC(=O)[C@H](Cc2csc3ccccc23)NC(=O)[C@@H](Cc2ccccc2)NC(=O)[C@H](Cc2ccccc2)NC1=O)C(N)=O | A549 | vimentin expression reduction, Western blot | 2 days | – | lowest effective concentration | 0.1 µM |

A few entries again:
| Compound | tested on | test | setting | how to read | endpoint | result |
| --- | --- | --- | --- | --- | --- | --- |
| COc1ccccc1-c1ccncc1C(=O)Nc1nnc(OCc2ccc(Cl)cc2)s1 | PEO1 BRCA2-mutant | – | 0.5 µM, with: olaparib 1 µM | – | colony survival | 0% |
| C[n+]1ccc(/C=N/NC(=O)N/N=C/c2cc[n+](C)cc2)cc1 | MYC parallel G4 DNA | FRET melting | 1 µM, DNA 0.2 µM, with: duplex DNA competitor 10 µM | – | ΔTm | 3.2 ± 0.3 °C |
